Published values collected from several papers.
Protocols differ between the studies behind these lines. “And” joins repeats or separate records; there may be more than shown. ± marks the error that the study gave.
Faah: Fatty-acid amide hydrolase 1 (Faah, Rattus norvegicus, UniProt P97612)
UniProt P48542, sequence (whole entry, looked up): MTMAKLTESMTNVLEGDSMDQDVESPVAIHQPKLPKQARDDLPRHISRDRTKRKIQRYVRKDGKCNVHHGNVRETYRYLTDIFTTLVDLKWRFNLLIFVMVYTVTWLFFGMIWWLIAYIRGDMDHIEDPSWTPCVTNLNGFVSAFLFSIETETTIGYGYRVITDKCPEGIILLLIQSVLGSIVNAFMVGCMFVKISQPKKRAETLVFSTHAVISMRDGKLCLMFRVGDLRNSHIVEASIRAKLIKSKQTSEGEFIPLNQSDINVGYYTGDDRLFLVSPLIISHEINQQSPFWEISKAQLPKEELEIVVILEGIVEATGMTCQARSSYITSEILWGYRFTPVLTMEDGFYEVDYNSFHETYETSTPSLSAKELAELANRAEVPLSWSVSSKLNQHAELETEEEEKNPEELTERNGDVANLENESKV
UniProt P63250, sequence (whole entry, looked up): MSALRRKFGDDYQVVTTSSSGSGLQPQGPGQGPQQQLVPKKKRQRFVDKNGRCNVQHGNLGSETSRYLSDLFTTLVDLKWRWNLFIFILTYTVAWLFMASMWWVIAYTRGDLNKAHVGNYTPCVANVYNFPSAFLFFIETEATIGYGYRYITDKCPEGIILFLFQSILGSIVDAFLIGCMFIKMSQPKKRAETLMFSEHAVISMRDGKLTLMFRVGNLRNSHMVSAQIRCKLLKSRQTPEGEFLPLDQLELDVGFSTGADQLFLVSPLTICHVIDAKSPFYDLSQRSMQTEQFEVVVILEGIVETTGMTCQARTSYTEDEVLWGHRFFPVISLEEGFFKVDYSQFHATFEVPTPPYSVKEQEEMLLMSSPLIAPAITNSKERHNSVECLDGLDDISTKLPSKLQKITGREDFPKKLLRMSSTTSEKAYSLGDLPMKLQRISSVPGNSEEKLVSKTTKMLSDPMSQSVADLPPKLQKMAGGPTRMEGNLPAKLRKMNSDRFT
UniProt P97612, sequence (whole entry, looked up): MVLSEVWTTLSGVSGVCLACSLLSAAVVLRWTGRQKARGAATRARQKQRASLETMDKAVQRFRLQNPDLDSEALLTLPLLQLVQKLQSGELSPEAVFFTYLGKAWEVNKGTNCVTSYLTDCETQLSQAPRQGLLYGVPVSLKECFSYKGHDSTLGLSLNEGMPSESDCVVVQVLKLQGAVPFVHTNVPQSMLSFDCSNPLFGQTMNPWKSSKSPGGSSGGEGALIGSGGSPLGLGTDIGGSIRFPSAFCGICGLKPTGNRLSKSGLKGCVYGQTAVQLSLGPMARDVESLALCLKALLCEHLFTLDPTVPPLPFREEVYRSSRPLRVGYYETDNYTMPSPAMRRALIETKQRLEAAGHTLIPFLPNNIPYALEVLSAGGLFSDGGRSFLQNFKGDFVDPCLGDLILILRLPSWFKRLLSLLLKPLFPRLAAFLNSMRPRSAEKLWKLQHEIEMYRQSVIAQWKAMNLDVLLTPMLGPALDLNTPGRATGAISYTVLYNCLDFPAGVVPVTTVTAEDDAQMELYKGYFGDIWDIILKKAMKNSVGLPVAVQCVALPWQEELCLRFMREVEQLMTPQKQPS
UniProt P04756, sequence (whole entry, looked up): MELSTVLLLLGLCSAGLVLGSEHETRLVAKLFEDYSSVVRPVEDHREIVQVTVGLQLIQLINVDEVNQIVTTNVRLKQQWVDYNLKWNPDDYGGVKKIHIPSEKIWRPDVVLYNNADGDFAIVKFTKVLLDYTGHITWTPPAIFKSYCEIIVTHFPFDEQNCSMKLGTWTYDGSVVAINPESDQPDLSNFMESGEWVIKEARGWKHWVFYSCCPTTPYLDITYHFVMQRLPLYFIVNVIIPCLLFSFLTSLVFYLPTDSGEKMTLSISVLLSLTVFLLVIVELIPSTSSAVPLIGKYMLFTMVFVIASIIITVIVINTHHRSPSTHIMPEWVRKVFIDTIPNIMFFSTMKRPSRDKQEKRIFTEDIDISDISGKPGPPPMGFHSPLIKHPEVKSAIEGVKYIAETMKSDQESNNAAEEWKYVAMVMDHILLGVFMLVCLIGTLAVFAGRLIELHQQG
UniProt Q9NQS5, sequence (whole entry, looked up): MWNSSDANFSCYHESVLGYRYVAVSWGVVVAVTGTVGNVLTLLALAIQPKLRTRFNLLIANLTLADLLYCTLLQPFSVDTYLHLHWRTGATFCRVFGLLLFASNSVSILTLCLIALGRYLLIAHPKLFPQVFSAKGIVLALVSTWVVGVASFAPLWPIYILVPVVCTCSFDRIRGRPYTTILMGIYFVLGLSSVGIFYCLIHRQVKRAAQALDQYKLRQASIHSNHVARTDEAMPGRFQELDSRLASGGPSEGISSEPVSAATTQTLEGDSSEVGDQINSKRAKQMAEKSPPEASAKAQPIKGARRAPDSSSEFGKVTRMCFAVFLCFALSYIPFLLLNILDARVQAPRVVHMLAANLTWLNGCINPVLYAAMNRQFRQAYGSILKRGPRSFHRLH
UniProt Q07869, sequence (whole entry, looked up): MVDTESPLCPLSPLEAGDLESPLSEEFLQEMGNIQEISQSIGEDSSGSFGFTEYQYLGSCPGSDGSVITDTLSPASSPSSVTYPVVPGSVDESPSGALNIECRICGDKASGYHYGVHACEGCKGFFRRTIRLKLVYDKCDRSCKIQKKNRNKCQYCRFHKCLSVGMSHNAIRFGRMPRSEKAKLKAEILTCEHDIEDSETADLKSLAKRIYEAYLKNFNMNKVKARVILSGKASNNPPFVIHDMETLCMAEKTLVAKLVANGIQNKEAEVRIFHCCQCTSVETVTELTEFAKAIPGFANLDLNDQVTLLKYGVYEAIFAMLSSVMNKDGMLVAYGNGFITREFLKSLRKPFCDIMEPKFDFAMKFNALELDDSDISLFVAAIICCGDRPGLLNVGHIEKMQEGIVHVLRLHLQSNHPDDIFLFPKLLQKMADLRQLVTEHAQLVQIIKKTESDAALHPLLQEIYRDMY
UniProt P77488, sequence (whole entry, unmodified, looked up): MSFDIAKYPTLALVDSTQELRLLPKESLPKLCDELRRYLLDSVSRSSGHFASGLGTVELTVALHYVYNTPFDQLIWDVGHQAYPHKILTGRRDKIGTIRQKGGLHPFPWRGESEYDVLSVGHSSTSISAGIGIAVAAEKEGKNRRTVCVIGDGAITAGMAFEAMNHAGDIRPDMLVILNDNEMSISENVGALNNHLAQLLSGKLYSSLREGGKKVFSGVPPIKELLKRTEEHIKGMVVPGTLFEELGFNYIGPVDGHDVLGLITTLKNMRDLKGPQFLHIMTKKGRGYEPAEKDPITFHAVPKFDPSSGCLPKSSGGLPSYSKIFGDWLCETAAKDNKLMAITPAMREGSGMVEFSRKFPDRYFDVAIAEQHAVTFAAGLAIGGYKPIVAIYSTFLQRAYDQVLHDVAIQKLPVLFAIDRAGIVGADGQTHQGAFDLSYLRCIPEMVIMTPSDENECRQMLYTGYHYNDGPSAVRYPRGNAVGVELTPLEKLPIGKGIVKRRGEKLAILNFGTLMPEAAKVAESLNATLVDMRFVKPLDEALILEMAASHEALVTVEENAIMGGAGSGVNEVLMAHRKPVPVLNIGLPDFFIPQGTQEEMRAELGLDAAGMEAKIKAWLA
UniProt P09690, sequence (whole entry, looked up): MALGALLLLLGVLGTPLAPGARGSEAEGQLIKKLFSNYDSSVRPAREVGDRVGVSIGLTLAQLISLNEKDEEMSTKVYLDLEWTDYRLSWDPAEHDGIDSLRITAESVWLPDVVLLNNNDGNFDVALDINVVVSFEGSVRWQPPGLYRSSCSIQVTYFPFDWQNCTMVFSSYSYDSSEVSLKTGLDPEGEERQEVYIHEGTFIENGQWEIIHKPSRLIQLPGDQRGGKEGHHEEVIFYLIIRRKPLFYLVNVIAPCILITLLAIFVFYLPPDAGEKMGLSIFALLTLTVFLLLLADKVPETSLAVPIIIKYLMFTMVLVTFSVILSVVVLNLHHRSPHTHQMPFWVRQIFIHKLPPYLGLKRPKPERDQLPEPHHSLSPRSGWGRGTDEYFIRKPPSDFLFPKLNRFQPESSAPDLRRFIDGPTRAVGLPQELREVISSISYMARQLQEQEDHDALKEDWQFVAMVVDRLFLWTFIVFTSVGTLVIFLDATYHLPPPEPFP
UniProt P09936, sequence (whole entry, looked up): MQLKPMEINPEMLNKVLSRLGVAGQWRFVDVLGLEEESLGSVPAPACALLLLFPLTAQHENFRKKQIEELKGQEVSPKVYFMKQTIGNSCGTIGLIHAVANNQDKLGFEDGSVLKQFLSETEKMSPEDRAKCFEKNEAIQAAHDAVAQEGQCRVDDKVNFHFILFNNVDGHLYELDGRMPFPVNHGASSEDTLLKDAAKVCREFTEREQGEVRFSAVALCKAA
UniProt Q13526, sequence (whole entry, looked up): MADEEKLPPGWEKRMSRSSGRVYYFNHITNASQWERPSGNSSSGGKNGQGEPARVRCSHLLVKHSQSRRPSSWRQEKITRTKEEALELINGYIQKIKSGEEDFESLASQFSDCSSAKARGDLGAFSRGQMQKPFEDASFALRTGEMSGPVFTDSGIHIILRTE
UniProt P35232, sequence (whole entry, looked up): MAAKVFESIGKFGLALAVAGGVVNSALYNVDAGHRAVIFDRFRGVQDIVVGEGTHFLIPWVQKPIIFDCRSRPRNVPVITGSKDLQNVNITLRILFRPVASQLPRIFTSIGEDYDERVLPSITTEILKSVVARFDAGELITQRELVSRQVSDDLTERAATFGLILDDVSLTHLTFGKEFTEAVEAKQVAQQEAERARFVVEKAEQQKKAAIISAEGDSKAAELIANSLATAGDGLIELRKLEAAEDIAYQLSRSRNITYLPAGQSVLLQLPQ

SMILES	target	test	system	setting	how to read	quantity	value
CC[N+]1(C)CCN(c2cccc(Cl)c2)CC1.[I-]	Nicotinic acetylcholine receptor alpha1/beta1/epsilon/delta (Mus musculus, UniProt P02716+P04756+P09690+P20782)	peak current, agonist, two-electrode voltage clamp	Xenopus oocytes	30 µM	baseline: ACh 30 µM	response relative to ACh	33%
O=C1C=CC(=O)c2c(O)cccc21	Peptidyl-prolyl cis-trans isomerase NIMA-interacting 1 (PIN1, Homo sapiens, UniProt Q13526)	PPIase activity, inhibitor, chymotrypsin-coupled				IC50	~7 µM
CC(=O)NC[C@H]1[C@H](O)[C@H](O)[C@@H]2[C@H](O)C[C@@H](CO)N21	human placental β-N-acetylglucosaminidase			0.00161 µM, run 2, with: p-nitrophenyl GlcNAc		inhibition	22.4%
COc1ccc(C(=O)CCl)c2c1C(=O)CO2	Ubiquitin carboxyl-terminal hydrolase isozyme L1 (UCHL1, Homo sapiens, UniProt P09936)	covalent, intact protein LC-MS		12.5 µM		labelling	16.1%
C[C@H]1CN(c2n[nH]c3nc(N[C@H]4CC[C@H](NS(=O)(=O)CCC(F)(F)F)CC4)ncc23)CCO1	Prohibitin 1 (PHB1, Homo sapiens, UniProt P35232)	competitor, Kinobeads competition	human cell extract	20 µM	baseline: vehicle	relative abundance	1.14
Cc1cc(NC(=O)Nc2ccc(F)c(F)c2)n(-c2ccccc2)n1	Kcnj6/Kcnj3 (Mus musculus, UniProt P48542+P63250)	membrane hyperpolarisation, membrane potential dye fluorescence	AtT20 cells	30 µM		membrane potential change	37.6% and 47.4% and 34.8% and 36.4% and 40.6% and 34.1%
O=C(Nc1cccnn1)N1CCC(=Cc2cccc(Oc3ccc(C(F)(F)F)cn3)c2)CC1	Calcium/calmodulin-dependent protein kinase type II subunit delta (CAMK2D, Homo sapiens, UniProt Q13557)	enzyme activity, inhibitor		50 µM, with: autocamtide-2		inhibition	22%
CC12CCC(CC1)C(C)(C)O2	1,8-cineole 2-endo-monooxygenase (cinA, Citrobacter braakii, UniProt Q8VQF6, Y81F)	ITC		25 °C, Y81F enzyme variant		ΔH	12.8 ± 1 kcal/mol
COc1cc(N)c(Cl)cc1C(=O)NC1CN2CCC1CC2 (stereo not shown)	G-protein coupled receptor 84 (GPR84, Homo sapiens, UniProt Q9NQS5)	β-arrestin recruitment, TANGO luminescence		concentration not given	baseline: basal luminescence	log2 fold change	0.113
O=C(Nc1cnccc1Cl)N1CCN(Cc2ccc3c(c2)OC(F)(F)O3)CC1	Faah	probe labelling, inhibitor, competitive ABPP with azido-FP probe	rat brain membrane fraction	10 µM		inhibition	99.2%
CN(C(=O)n1cnc(-c2ccc[n+]([O-])c2)c1)C1CCCCC1	Faah	enzyme activity, ABPP	rat, brain	oral, 10 mg/kg/day, 7 days	baseline: vehicle	fold change	-45
COc1ccc(N2C(=O)N(c3c(C)cccc3Cl)Cc3cnc(Nc4ccc(C5CCN(C)CC5)cc4OC)nc32)nc1	Serine/threonine-protein kinase Nek2 (NEK2, Homo sapiens, UniProt P51955)	kinase activity		0.5 µM		inhibition	20%
CC1(C)C(C=C(Cl)Cl)C1C(=O)OCc1cccc(Oc2ccccc2)c1 (stereo not shown)	uncharacterized protein (Anopheles coluzzii, UniProt A0A6E8VQK1)	enzyme activity, inhibitor	Sf9 cell homogenate	29.59 µM, 0.1667 h, with: α-naphthyl acetate substrate	baseline: no inhibitor	remaining activity	98.5%
CCCCOP(=O)(O)C(C)=O	1-deoxy-D-xylulose-5-phosphate synthase (dxs, Escherichia coli, UniProt P77488, R99A)	inhibitor, DXPS-IspC coupled			baseline: wild-type enzyme	IC50 fold increase	11 fold
CN(CCOc1ccc(C[C@H](Nc2ccccc2C(=O)c2ccccc2)C(=O)O)cc1)c1ccccn1.O	Peroxisome proliferator-activated receptor alpha (PPARA, Homo sapiens, UniProt Q07869)	binding, frontal affinity chromatography-MS		0.5 µM, equimolar ligand mixture		breakthrough time	18.8 min
O=c1[nH]c2ccccc2n1C1CCN(Cc2ccc(-c3[nH]c4cc5ncnc5cc4nc3-c3ccccc3)cc2)CC1	Transient receptor potential cation channel subfamily M member 8 (TRPM8, Homo sapiens, UniProt Q7Z2W7)	antagonist	HEK293	5 µM		remaining activity	83.9 ± 8.93%

Some of these lines once more:
SMILES	target	test	system	setting	how to read	quantity	value
CN(CCOc1ccc(C[C@H](Nc2ccccc2C(=O)c2ccccc2)C(=O)O)cc1)c1ccccn1.O	Peroxisome proliferator-activated receptor alpha (PPARA, Homo sapiens, UniProt Q07869)	binding, frontal affinity chromatography-MS		0.5 µM, equimolar ligand mixture		breakthrough time	18.8 min
